Published values gathered from unrelated publications.
Lines come from different studies, so protocols differ. Numbers after ± are the reported error.

Compound | test | test system | setting | tissue uptake
N=C(N)NCCC[C@@H]1NC(=O)[C@H](CCCCNC(=O)CC[C@H](NC(=O)[C@H](CCCCNC(=O)c2ccc(NN)nc2)NC(=O)c2ccc(NN)nc2)C(=O)NCCCC[C@@H]2NC(=O)[C@@H](Cc3ccccc3)NC(=O)[C@H](CC(=O)O)NC(=O)CNC(=O)[C@H](CCCNC(=N)N)NC2=O)NC(=O)[C@@H](Cc2ccccc2)NC(=O)[C@H](CC(=O)O)NC(=O)CNC1=O [technetium-99m labelled] |  | female athymic nude mice, muscle | intravenous, 0.1 MBq, 1 h, U-87 MG glioma xenograft | 0.92 ± 0.11 %ID/g
N=C(N)NCCC[C@@H]1NC(=O)[C@H](CCCCNC(=O)CC[C@H](NC(=O)CCOCCOCCOCCOCCNC(=O)CN2CCN(CC(=O)O)CCN(CC(=O)O)CCN(CC(=O)O)CC2)C(=O)NCCCC[C@@H]2NC(=O)[C@@H](Cc3ccccc3)NC(=O)[C@H](CC(=O)O)NC(=O)CNC(=O)[C@H](CCCNC(=N)N)NC2=O)NC(=O)[C@@H](Cc2ccccc2)NC(=O)[C@H](CC(=O)O)NC(=O)CNC1=O [indium-111 labelled] |  | female athymic nude mice, kidney | intravenous, 3 µCi, 0.5 h, U-87 MG glioma xenograft | 6.36 ± 0.8 %ID/g
CSCC[C@H](NC(=O)[C@H](CC(C)C)NC(=O)[C@H](Cc1c[nH]cn1)NC(=O)CNC(=O)[C@@H](NC(=O)[C@H](C)NC(=O)[C@H](Cc1c[nH]c2ccccc12)NC(=O)[C@H](CCC(N)=O)NC(=O)CNC(=O)[C@H](CO)NC(=O)CNC(=O)CCCCCCCNC(=O)CCC(=O)Nc1ccc(CNC23CNCCNCC(N)(CNCCNC2)CNCCNC3)cc1)C(C)C)C(N)=O [copper-64 labelled] |  | female SCID mice, PC-3 xenograft, liver | intravenous, 0.6 MBq, 1 h | 5.1 %ID/g
N=C(N)NCCC[C@H](NC(=O)[C@H](CCCCN)NC(=O)[C@H](CCC(N)=O)NC(=O)CCOCCOCCOCCNC(=O)CN1CCN(CC(=O)O)CCN(CC(=O)O)CCN(CC(=O)O)CC1)C(=O)N[C@@H](CCCCN)C(=O)N[C@@H](CCCNC(=N)N)C(=O)N[C@@H](CCCCN)C(=O)N[C@@H](CCCCN)C(=O)N[C@@H](CO)C(=O)N[C@@H](CCCNC(=N)N)C(=O)N[C@@H](Cc1ccc(O)cc1)C(=O)N[C@@H](CCCCN)C(=O)N[C@@H](CO)C(=O)O [copper-64 labelled] |  | male C57BL/6 mice, B16-F10 tumour, heart | intravenous, 60 min | 0.59 ± 0.04 %ID/g
CC(C)C[C@H](NC(=O)[C@H](Cc1ccc(O)cc1)NC(=O)[C@@H](CCCNC(=N)N)NC(=O)[C@@H](CO)NC(=O)[C@H](Cc1ccccc1)NC(=O)[C@H](CC1CCCCC1)NC(=O)[C@H](CC(=O)O)NC(=O)CCC(C(=O)O)N1CCCN2CCN(CCCN(CC(=O)O)CC2)CC1)C(=O)N[C@@H](Cc1c[nH]c2ccccc12)C(=O)N[C@@H](CO)C(=O)O (some centres unmarked) [copper-64 labelled] |  | female NMRI nude mice, kidney | 1 h p.i. | 14 ± 1.6 %ID/g
N=C(N)NCCC[C@@H]1NC(=O)[C@H](CCCCNC(=O)CCOCCOCCOCCOCCNC(=O)CC[C@H](NC(=O)CCOCCOCCOCCOCCNC(=O)CC[C@H](NC(=O)CN2CCN(CC(=O)O)CCN(CC(=O)O)CCN(CC(=O)O)CC2)C(=O)NCCOCCOCCOCCOCCC(=O)N[C@@H](CCC(=O)NCCOCCOCCOCCOCCC(=O)NCCCC[C@@H]2NC(=O)[C@@H](Cc3ccccc3)NC(=O)[C@H](CC(=O)O)NC(=O)CNC(=O)[C@H](CCCNC(=N)N)NC2=O)C(=O)NCCOCCOCCOCCOCCC(=O)NCCCC[C@@H]2NC(=O)[C@@H](Cc3ccccc3)NC(=O)[C@H](CC(=O)O)NC(=O)CNC(=O)[C@H](CCCNC(=N)N)NC2=O)C(=O)NCCOCCOCCOCCOCCC(=O)NCCCC[C@@H]2NC(=O)[C@@H](Cc3ccccc3)NC(=O)[C@H](CC(=O)O)NC(=O)CNC(=O)[C@H](CCCNC(=N)N)NC2=O)NC(=O)[C@@H](Cc2ccccc2)NC(=O)[C@H](CC(=O)O)NC(=O)CNC1=O [indium-111 labelled] |  | athymic nude mice, female, U-87 MG glioma xenograft, spleen | intravenous, 3 µCi, 24 h | 1.67 ± 0.18 %ID/g
CSCC[C@H](NC(=O)[C@H](CC(C)C)NC(=O)[C@H](Cc1c[nH]cn1)NC(=O)CNC(=O)[C@@H](NC(=O)[C@H](C)NC(=O)[C@H](Cc1c[nH]c2ccccc12)NC(=O)[C@H](CCC(N)=O)NC(=O)CCCCNC(=O)CSCCSCCP(CO)CO)C(C)C)C(N)=O [technetium-99m labelled] |  | CF-1 mice, female, brain | intravenous, 4 h | 0 %ID
N=C(N)NCCC[C@@H]1NC(=O)[C@H](CCCCNC(=O)CCOCCOCCOCCOCCNC(=O)CC[C@H](NC(=O)CCOCCOCCOCCOCCNC(=O)c2ccc(NN)nc2)C(=O)NCCOCCOCCOCCOCCC(=O)NCCCC[C@@H]2NC(=O)[C@@H](Cc3ccccc3)NC(=O)[C@H](CC(=O)O)NC(=O)CNC(=O)[C@H](CCCNC(=N)N)NC2=O)NC(=O)[C@@H](Cc2ccccc2)NC(=O)[C@H](CC(=O)O)NC(=O)CNC1=O [technetium-99m labelled] |  | female athymic nude mice, U-87 MG glioma xenograft, lungs | intravenous, 2.5 µCi, 60 min | 2.1 ± 0.54 %ID/g
CSCC[C@H](NC(=O)[C@H](CC(=O)O)NC(=O)[C@H](CO)NC(=O)[C@H](Cc1c[nH]cn1)NC(=O)[C@H](Cc1c[nH]c2ccccc12)NC(=O)CN1CCN(CC(=O)O)CCN(CC(=O)O)CCN(CC(=O)O)CC1)C(=O)N[C@@H](CCC(=O)O)C(=O)N[C@@H](Cc1c[nH]c2ccccc12)C(=O)N[C@@H](Cc1c[nH]c2ccccc12)C(=O)N[C@@H](Cc1ccc(O)cc1)C(=O)N[C@@H](CC(C)C)C(=O)N[C@@H](CC(C)C)C(=O)NCC(=O)O [copper-64 labelled] | gamma counting | nude mice bearing HT-29 tumours, HT-29 tumour | intravenous, 0.74 MBq (0.02 nmol), 4 h | 3.55 %ID/g
CCCC[C@H](NC(=O)[C@H](Cc1cccs1)NC(=O)[C@H](Cc1c[nH]cn1)NC(=O)CCNC(=O)[C@@H](NC(=O)[C@H](C)NC(=O)[C@H](Cc1c[nH]c2ccccc12)NC(=O)[C@H](CCC(N)=O)NC(=O)[C@H](Cc1cccs1)NC(=O)CN1CCC(NC(=O)CN(CCN(CCN(CC(=O)O)CC(=O)O)CC(=O)O)CC(=O)O)CC1)C(C)C)C(N)=O [indium-111 labelled] |  | male Swiss nu/nu mice, PC-3 tumour, kidney | intravenous, 10 pmol, 1 h | 2 ± 0.3 %ID/g
N=C(N)NCCC[C@@H]1NC(=O)[C@H](CCCCNC(=O)CCOCCOCCOCCOCCNC(=O)CN2CCN(CC(=O)O)CCN(CC(=O)O)CCN(CC(=O)O)CC2)NC(=O)[C@@H](Cc2ccccc2)NC(=O)[C@H](CC(=O)O)NC(=O)CNC1=O [indium-111 labelled] |  | female athymic nude mice, eyes | intravenous, 3 µCi, 4 h, U-87 MG glioma xenograft | 0.24 ± 0.01 %ID/g
N=C(N)NCCC[C@@H]1NC(=O)[C@H](CC(=O)NC23CNCCNCC(N)(CNCCNC2)CNCCNC3)NC(=O)[C@@H](Cc2ccccc2)NC(=O)[C@H](CC(=O)O)NC(=O)CNC1=O [copper-64 labelled] |  | male nude tumour-bearing mice, kidney | iv, 10 µCi, 2 h | 3.78 ± 0.29 %ID/g
N=C(N)NCCC[C@@H]1NC(=O)[C@H](CCCCNC(=O)CNC(=O)CNC(=O)CNC(=O)CC[C@H](NC(=O)CCOCCOCCOCCOCCNC(=O)CC[C@H](NC(=O)CN2CCN(CC(=O)O)CCN(CC(=O)O)CCN(CC(=O)O)CC2)C(=O)NCCOCCOCCOCCOCCC(=O)N[C@@H](CCC(=O)NCC(=O)NCC(=O)NCC(=O)NCCCC[C@@H]2NC(=O)[C@@H](Cc3ccccc3)NC(=O)[C@H](CC(=O)O)NC(=O)CNC(=O)[C@H](CCCNC(=N)N)NC2=O)C(=O)NCC(=O)NCC(=O)NCC(=O)NCCCC[C@@H]2NC(=O)[C@@H](Cc3ccccc3)NC(=O)[C@H](CC(=O)O)NC(=O)CNC(=O)[C@H](CCCNC(=N)N)NC2=O)C(=O)NCC(=O)NCC(=O)NCC(=O)NCCCC[C@@H]2NC(=O)[C@@H](Cc3ccccc3)NC(=O)[C@H](CC(=O)O)NC(=O)CNC(=O)[C@H](CCCNC(=N)N)NC2=O)NC(=O)[C@@H](Cc2ccccc2)NC(=O)[C@H](CC(=O)O)NC(=O)CNC1=O [indium-111 labelled] |  | female athymic nude mice, lungs | intravenous, 3 µCi, 4 h, U-87 MG glioma xenograft | 1.91 ± 0.27 %ID/g
N=C(N)NCCC[C@@H]1NC(=O)[C@H](CCCCNC(=O)CCOCCOCCOCCOCCNC(=O)CC[C@H](NC(=O)[C@H](CCCCNC(=O)c2ccc(NN)nc2)NC(=O)c2ccc(NN)nc2)C(=O)NCCOCCOCCOCCOCCC(=O)NCCCC[C@@H]2NC(=O)[C@@H](Cc3ccccc3)NC(=O)[C@H](CC(=O)O)NC(=O)CNC(=O)[C@H](CCCNC(=N)N)NC2=O)NC(=O)[C@@H](Cc2ccccc2)NC(=O)[C@H](CC(=O)O)NC(=O)CNC1=O [technetium-99m labelled] |  | female athymic nude mice, blood | intravenous, 0.1 MBq, 1 h, U-87 MG glioma xenograft | 0.99 ± 0.04 %ID/g
